Assay results pooled from the literature.
A part holds a random share of what one study measured.

Series 1
Target: Histone acetyltransferase KAT6A, both winged helices, GST fusion (KAT6A, Homo sapiens, UniProt Q92794, residues 1-181)
Technique: protein binding microarray
Molecule type: double-stranded DNA, one strand shown
Matrix: in vitro
Tested at: not given
Notes: 8-mer, flanks averaged, mean of 2 arrays, mostly near background
Relative to: not given
Direction: higher = stronger binding
Target sequence (chain): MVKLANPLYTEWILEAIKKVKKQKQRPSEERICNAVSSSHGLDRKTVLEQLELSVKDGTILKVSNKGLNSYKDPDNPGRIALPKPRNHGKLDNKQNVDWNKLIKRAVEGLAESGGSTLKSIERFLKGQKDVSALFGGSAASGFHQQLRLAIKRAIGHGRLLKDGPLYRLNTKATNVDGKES
`GGCCCTTA` gave an E-score of -0.0952.
`TACGACAA` gave an E-score of -0.0835.
`GGCCGTGA` has an E-score of 0.259.
The E-score of `CTTGTATA` is reported as -0.119.
The E-score of `TATCAGGA` is reported as -0.0669.
`ACCGCCTG` has an E-score of 0.13.

Series 2
Target: Interferon regulatory factor 5, full length, phosphomimetic (IRF5, Homo sapiens, UniProt Q13568-2, residues 1-514, S451D/S453D/S456D/S462D)
Technique: protein-binding microarray
Molecule type: double-stranded DNA, one strand shown
Matrix: in vitro
Tested at: 940 nM top
Notes: 60-bp whole probe
With: salmon DNA 0.4 mg/ml
Relative to: random background probes
Direction: higher = stronger binding
All sequences stand within: GCCTAGCAC … GTCTTGATTCGCTTGACGCTGCTG
For `GACGATATCGGGTTCCGAGACGTGCTA`, “fitted relative affinity” read -0.287 z-score.
`TCACATCTGTCATGTTTGACTGTGCTA` — result for “fitted relative affinity”: -0.0318 z-score.
For `TTAGATTTCAGACTGGGTTAGTGCTAG`, “fitted relative affinity” read -0.105 z-score.
`GGCTGTTTGGTCCTGAACCTGTGCTAG` — result for “fitted relative affinity”: -0.801 z-score.
For `TTAGGAGTGCTACTGCTTTAGTGCTAG`, “fitted relative affinity” read -0.598 z-score.

Series 3
Target: RNA binding protein fox-1 homolog 2, RRM domain, GST-SBP tag (RBFOX2, Homo sapiens, UniProt O43251-10, residues 100-194)
Technique: RNA Bind-n-Seq
Molecule type: RNA
Matrix: in vitro
Tested at: 365 nM
Notes: natural RNA segment, single round, ends assumed
Relative to: no-protein control
Direction: higher = stronger binding
All sequences stand within: GGGAGUUCUACAGUCCGACGAUC … UGGAAUUCUCGGGUGCCAA
Residues (chain): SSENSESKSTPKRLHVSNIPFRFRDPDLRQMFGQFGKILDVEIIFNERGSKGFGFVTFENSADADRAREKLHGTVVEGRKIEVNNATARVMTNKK
Under “RBNS enrichment (R)”, `UAGGUUUUCUAGAGUUUAAUUCUUUAUCAGCCAGGCAAUGACUCUGAACUCUGAAAUGCUAUAUUAUUUAGGACCCAAAAGAAAAUGGAUCAAUGGCCUUAUCUGUUACA` is recorded as 0.755.
`GAGGCAGGGACCACAGAACUGUCCAGCCAACACGUCUGAACUGGAACUGUUCCACUUGAACCCGGGAGCUUUAAAGCUUUAUUUAUUUAUAGCUUCUUAUUAAAAAUUUA` — result for “RBNS enrichment (R)”: 0.592.
`CUCAUUCACUGUCCUGGCUUUUAUUUAAAGAAAAAAAAGGCAGUAUUCCCUUUUUAAAUGAGCUUUCAGGAAGUUGCUGAGAAAUGGGGUGGAAUAGGGAACUGUAAUGG` — result for “RBNS enrichment (R)”: 0.454.
Under “RBNS enrichment (R)”, `AGUCUGCCUACAACAGCUACAGCUGGGGGGCCAACUGGGCCCUGACCCUCUUCUCCCGGUCCCAUCUUCUGAGAGGGCUUCUCAGCCUGGAAACUAUGGAAACAGCAUCA` is recorded as 0.329.
For `UUUAUAUAGCACAGGCUCUAGAAUCAGAUUAAGUAGGUUCAAAUACCAGUUCUGCCAGUAACUGGUUUUAGAACCUUGGGCAAGUUAAAGAAUGUCUCCCAGCCUCAGUU`, “RBNS enrichment (R)” read 0.894.
Under “RBNS enrichment (R)”, `UGGACCGCUUCCCCUGCCUUCUCUCUGCCGUGGCCCAGAGCCGGCCCAGCUGCACACACACACCAUGCUCUCGCCCUGCUGUAACCUCUGUCUUGGCAGGGCUGUCCCCU` is recorded as 0.855.
`CCUCGCCACAGGGAAGCACAAGAACCCCCUCCAUCCCGGAGGAUGCAGGACACGAAGCCCCGGGGUGGGCGGGAGGAGGCUGACCUUUUACCUGCGCAUAGACUUUGAUU`: “RBNS enrichment (R)” 0.529.

Mixed results
For `PhoQ, residues 284 288 289 292 302 303 SASVAL`, the fold induction was 1.34 (PhoP, residues 12 14 15 18 19 LHSVW (Escherichia coli, UniProt P23836); Sort-seq, item: YFP reporter; E. coli; PhoQ-PhoP variant library, with: 10 µM Mg2+; relative to: high Mg2+ state, higher = stronger signaling).

For quick reference, copied from above (series 3):
`GAGGCAGGGACCACAGAACUGUCCAGCCAACACGUCUGAACUGGAACUGUUCCACUUGAACCCGGGAGCUUUAAAGCUUUAUUUAUUUAUAGCUUCUUAUUAAAAAUUUA` — result for “RBNS enrichment (R)”: 0.592.
`CUCAUUCACUGUCCUGGCUUUUAUUUAAAGAAAAAAAAGGCAGUAUUCCCUUUUUAAAUGAGCUUUCAGGAAGUUGCUGAGAAAUGGGGUGGAAUAGGGAACUGUAAUGG` — result for “RBNS enrichment (R)”: 0.454.
Under “RBNS enrichment (R)”, `AGUCUGCCUACAACAGCUACAGCUGGGGGGCCAACUGGGCCCUGACCCUCUUCUCCCGGUCCCAUCUUCUGAGAGGGCUUCUCAGCCUGGAAACUAUGGAAACAGCAUCA` is recorded as 0.329.
